Results collected from several papers.
Parts stem from different laboratories: compare values within a part only. Positions count from the first letter of the parent shown.

Series 1
Target: ABI1, truncated, D143A, DHFR fusion (Arabidopsis thaliana)
Method: DHFR PCA, deep sequencing
Medium: yeast
Notes: methotrexate growth selection, single substitutions
Together with: (+)-ABA 58 µM
Reference: wild-type fitted maximum
Reading: higher = stronger binding
Starting sequence: PYL1, truncated, DHFR fusion (Arabidopsis thaliana); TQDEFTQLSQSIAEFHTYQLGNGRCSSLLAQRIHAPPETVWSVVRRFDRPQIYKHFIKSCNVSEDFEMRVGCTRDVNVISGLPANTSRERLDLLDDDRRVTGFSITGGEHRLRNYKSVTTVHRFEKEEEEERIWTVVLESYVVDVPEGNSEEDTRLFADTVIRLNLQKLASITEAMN
`K116H` — result for “relative binding score”: 81.4%.
`R155I`: “relative binding score” 81.1%.
For `D97Y`, “relative binding score” read 75.4%.
`F47G` — result for “relative binding score”: -2.72%.
`D48L` — result for “relative binding score”: -8.09%.
`I57L`: “relative binding score” 79.1%.
`S150I` — result for “relative binding score”: 45.6%.
Under “relative binding score”, `F56N` is recorded as -7.57%.
`E4M`: “relative binding score” 84.2%.
For `V136I`, “relative binding score” read 104%.
`D159T`: “relative binding score” 41.7%.
For `S150H`, “relative binding score” read 57.8%.
For `L20A`, “relative binding score” read 92.9%.

Series 2
Target: RNA binding protein fox-1 homolog 2, RRM domain, GST-SBP tag (RBFOX2, Homo sapiens, UniProt O43251-10, residues 100-194)
Method: RNA Bind-n-Seq
Form: RNA
Medium: in vitro
Tested at: 365 nM
Notes: natural RNA segment, single round, ends assumed
Reference: no-protein control
Reading: higher = stronger binding
Construct (chain): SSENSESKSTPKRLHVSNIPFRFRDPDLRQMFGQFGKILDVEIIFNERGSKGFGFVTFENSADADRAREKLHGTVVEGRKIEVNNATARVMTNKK
`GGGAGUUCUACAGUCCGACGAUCCUCCGAGGCCGACGAGAUGGCCAAGGCGCUGGAGGCGGAGCUCAACGACCUCAUGUGAGCGCGGGCAGCGGGCAGGGACUGAAGCCUGACCGACCUCCAGCAGCACUCGGUGGAAUUCUCGGGUGCCAA` — result for “RBNS enrichment (R)”: 0.343.
For `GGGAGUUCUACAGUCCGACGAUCUGGGGCCUGUGGAGCCUGGGGUUGGAUAGGGCCAUGGCUGGUCCCCCACCAUACCUCCCCUCCACAUCACUGACACAGCUGAGCUUGUUAUCCAUCUCCCCAAACUUUCUUGGAAUUCUCGGGUGCCAA`, “RBNS enrichment (R)” read 0.238.
`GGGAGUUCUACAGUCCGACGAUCAAAAACCAUAAUUGCUUGUGGUGAAACGAAGCAGUCUUCAUGUUAAGUAGCAAUGGUUAUUUUUAUUGGUAGUAACUGAACAGUGUUUUGCAAUUUGUGAAACAGUGUAUUGGAAUUCUCGGGUGCCAA`: “RBNS enrichment (R)” 0.295.
Under “RBNS enrichment (R)”, `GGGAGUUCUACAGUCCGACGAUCGCAGCCUUCCAUCUCCUGCACUGGCUGAGUCCAUUUACUUGUGUACUUGUUCUAGUGAGUGGUGGGACUGUACAUUUUUGAAUAGACCUCAAAAAUACUUCAUUCUGCUGUGGAAUUCUCGGGUGCCAA` is recorded as 0.557.
`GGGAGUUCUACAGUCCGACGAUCAUUAUUAUUAUUAUUUCCCCCUCCGUGCUCCCCACUUCUCUUGGCUCGCCCCCCCCCAAGUUGCCAGUGUUUCUGAAUGUCCUCGUGUCUGUGGUUGCGCUCCUUUCCCCUGGAAUUCUCGGGUGCCAA`: “RBNS enrichment (R)” 0.845.
Under “RBNS enrichment (R)”, `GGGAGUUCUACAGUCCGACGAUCCUGGCGUUUGUAGAGAAAGUGGGACGCUGUUCUCUUCAUAUUUAAAUGCCAGCCAGGUGCUGGCUGUGGGCUUUCCCUCCUCAACACCCUUAUUUAGAAAGGAAACUGUGUGGAAUUCUCGGGUGCCAA` is recorded as 0.578.
For `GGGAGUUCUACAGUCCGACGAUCACGGGGCUCACUCUGGCCCCCUAUUGUCUCCAAGGUCCCAUUUUCCCCCUGUGUUUUCACGCAGGUCAUAUUGUCAGUCCUACAAAAAUAAAAGGCUUCCAGAGGAGAGUUGGAAUUCUCGGGUGCCAA`, “RBNS enrichment (R)” read 0.418.
For `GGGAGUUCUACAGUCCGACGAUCAGUGGCCUCUAGAGGGUGGUCCUGUAGACCGCACCUUUUAGAGUCGAGGCCUCUGUGGUUGUGCCGCGGGUUUGCUGCUGUGCUGAGUCCUUCUGGGGGAGCCCUAAGAGUGGAAUUCUCGGGUGCCAA`, “RBNS enrichment (R)” read 0.402.
`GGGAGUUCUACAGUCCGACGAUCAUGUGCUUUAACCACUGCUGCAAAAGAGACAAGUCUGCAUUUAUUUGUGCAGGAAACCAGCCAUUUAAUUGUUCUAGAGUUUUAGCAUUUAAAAAUCGUAUGAAAGUCUAUGGAAUUCUCGGGUGCCAA` — result for “RBNS enrichment (R)”: 0.341.
`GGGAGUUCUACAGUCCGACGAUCUUCCAAGUCACCUGUGCUUUCUGGGACCAAAGAAUGGGCACCUGCUGGAGUCCGGGCAGAGCUUUCUCAGUUGUAUUGCUACUCCAGACCUCACCAUAGGUUGGGGUCCCUGGAAUUCUCGGGUGCCAA` — result for “RBNS enrichment (R)”: 0.98.
Under “RBNS enrichment (R)”, `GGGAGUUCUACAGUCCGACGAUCGAAAGCAUUUACCUUAUUUAUAUACCUGAAUGUUCCUACUACACAAAUAAACAUAUAUUAAAUUCUAGAUCAUGUGUGGUUUUCGAUGGUGGGGGUGGCGGAAGGCCAGGUGGAAUUCUCGGGUGCCAA` is recorded as 0.435.
For `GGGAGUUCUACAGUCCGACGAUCGCUGCCCAUGCAGCAGAGGGCAGAAGGCUUGCACUUGGGCCAAAGGGCCUAAGGUCCACUGGACAGUUGGGAAAACACCUGACCACCAUUUAAGGACUCUAAGCCAGAAUUGGAAUUCUCGGGUGCCAA`, “RBNS enrichment (R)” read 0.356.

Series 3
Target: CCND3, cyclin fold, Cln2 fusion (human)
Method: yeast growth competition, sequencing
Medium: yeast
Notes: weak parent motif
Reference: not given
Reading: higher = stronger binding
Starting sequence: RB1 docking peptide (human); PKPLKKLRFDIEG
Under “normalised enrichment score”, `PKPRKKLRFDIEG [L4R]` is recorded as 0.0921.
Under “normalised enrichment score”, `PKPLKKLRFWIEG [D10W]` is recorded as 0.0582.
For `PKPLKRLRFDIEG [K6R]`, “normalised enrichment score” read 0.111.
`PMPLKKLRFDIEG [K2M]`: “normalised enrichment score” 0.0918.
`PKPLKNLRFDIEG [K6N]` — result for “normalised enrichment score”: 0.125.
For `GKPLKKLRFDIEG [P1G]`, “normalised enrichment score” read 0.149.
`PKPLKSLRFDIEG [K6S]` — result for “normalised enrichment score”: 0.0913.
For `PEPLKKLRFDIEG [K2E]`, “normalised enrichment score” read 0.168.
`PKPLKGLRFDIEG [K6G]`: “normalised enrichment score” 0.154.
`PKPLKKWRFDIEG [L7W]` — result for “normalised enrichment score”: 0.225.
`PKFLKKLRFDIEG [P3F]`: “normalised enrichment score” 0.0907.
For `PKPLKKLRFDNEG [I11N]`, “normalised enrichment score” read 0.204.
`PKPLKKERFDIEG [L7E]`: “normalised enrichment score” 0.0702.
For `PKPLKKFRFDIEG [L7F]`, “normalised enrichment score” read 0.0667.
`PKPLAKARFDIEG [K5A L7A]`: “normalised enrichment score” 0.0626.
Under “normalised enrichment score”, `PKPLKKLRVDIEG [F9V]` is recorded as 0.143.
`PDPLKKLRFDIEG [K2D]`: “normalised enrichment score” 0.081.
For `PKPMKKLRFDIEG [L4M]`, “normalised enrichment score” read 0.2.
`PKPLKKLRFDIET [G13T]` — result for “normalised enrichment score”: 0.0392.
`PKPLKKLRWDIEG [F9W]`: “normalised enrichment score” 0.129.
For `PKPLKKLRFQIEG [D10Q]`, “normalised enrichment score” read 0.0314.
`PKPLKKLRFDIEI [G13I]`: “normalised enrichment score” 0.108.
For `PKPLKPLRFDIEG [K6P]`, “normalised enrichment score” read 0.0996.
Under “normalised enrichment score”, `FKPLKKLRFDIEG [P1F]` is recorded as 0.0855.
`PKPCKKLRFDIEG [L4C]`: “normalised enrichment score” 0.0954.

Mixed results
The fold induction of `PhoQ, residues 284 288 289 292 302 303 SIHLQL` is reported as 8.81 (PhoP, residues 12 14 15 18 19 QWHVF (Escherichia coli, UniProt P23836); Sort-seq, item: YFP reporter; E. coli; PhoQ-PhoP variant library, together with: 10 µM Mg2+; reference: high Mg2+ state, higher = stronger signaling).

Some of these lines once more (series 1):
`R155I`: “relative binding score” 81.1%.
Under “relative binding score”, `F56N` is recorded as -7.57%.
`K116H` — result for “relative binding score”: 81.4%.
For `L20A`, “relative binding score” read 92.9%.
`F47G` — result for “relative binding score”: -2.72%.
`E4M`: “relative binding score” 84.2%.
